Measurements of several laboratories.
Parts stem from different laboratories: compare values within a part only. Changes are numbered by the printed parent chain.

Set 1
Target: Interferon regulatory factor 7, full length, phosphomimetic (IRF7, Homo sapiens, UniProt Q92985, residues 1-503, S471D/S472D/S475D/S476D/S477D/S483D/S484D/S487D)
Method: protein-binding microarray
Form: double-stranded DNA, one strand shown
Matrix: in vitro
Tested at: 2200 nM top
Setting: 60-bp whole probe
Added: salmon DNA 0.4 mg/ml
Reference: random background probes
Direction: higher = stronger binding
Constant ends, left off below: GCCTAGCAC … GTCTTGATTCGCTTGACGCTGCTG
Construct (chain): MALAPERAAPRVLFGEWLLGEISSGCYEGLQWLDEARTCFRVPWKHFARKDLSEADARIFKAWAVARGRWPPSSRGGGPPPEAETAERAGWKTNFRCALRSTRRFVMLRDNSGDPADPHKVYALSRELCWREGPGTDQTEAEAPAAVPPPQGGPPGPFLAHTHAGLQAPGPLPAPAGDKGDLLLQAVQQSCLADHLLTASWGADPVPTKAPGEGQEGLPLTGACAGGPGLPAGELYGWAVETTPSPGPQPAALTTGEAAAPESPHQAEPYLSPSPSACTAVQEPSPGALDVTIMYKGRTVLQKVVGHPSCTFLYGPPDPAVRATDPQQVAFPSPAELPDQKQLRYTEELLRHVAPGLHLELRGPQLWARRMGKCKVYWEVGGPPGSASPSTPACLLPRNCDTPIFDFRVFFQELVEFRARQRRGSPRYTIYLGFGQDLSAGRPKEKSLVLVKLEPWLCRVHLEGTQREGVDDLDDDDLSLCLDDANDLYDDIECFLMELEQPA
Under “fitted relative affinity”, `GACGGTATCGACTTTCAGGACGTGCTA` is recorded as 0.935 z-score.
`ATATATGTAATCATTCACCTGGTGCTA`: “fitted relative affinity” 0.792 z-score.
`TTAGGTTCCGGTTACGGTTAGTGCTAG`: “fitted relative affinity” 2.22 z-score.
Under “fitted relative affinity”, `GACGGTTACGGTATCGGGACGTGCTAG` is recorded as 0.206 z-score.
Under “fitted relative affinity”, `TCATCTTTCATTGCTGCACTGTGCTAG` is recorded as 1.88 z-score.
`TTGCCTCACCTCACCTGTCCGTGCTAG`: “fitted relative affinity” 1.32 z-score.
`AACGGTTTCGGTTCCGGGACGTGCTAG`: “fitted relative affinity” 11.4 z-score.

Set 2
Target: RING finger protein unkempt homolog, zinc fingers 1-6, GST-SBP tag (UNK, Homo sapiens, UniProt Q9C0B0, residues 30-357)
Method: RNA Bind-n-Seq
Form: RNA
Matrix: in vitro
Tested at: not given
Setting: RNA with constant flanks, human and mouse sites, ends assumed
Reference: input RNA pool
Direction: higher = stronger binding
Constant ends, left off below: GGGAGUUCUACAGUCCGACGAUC … CAACAGAGGAUUGAGCAUCA
Residues (chain): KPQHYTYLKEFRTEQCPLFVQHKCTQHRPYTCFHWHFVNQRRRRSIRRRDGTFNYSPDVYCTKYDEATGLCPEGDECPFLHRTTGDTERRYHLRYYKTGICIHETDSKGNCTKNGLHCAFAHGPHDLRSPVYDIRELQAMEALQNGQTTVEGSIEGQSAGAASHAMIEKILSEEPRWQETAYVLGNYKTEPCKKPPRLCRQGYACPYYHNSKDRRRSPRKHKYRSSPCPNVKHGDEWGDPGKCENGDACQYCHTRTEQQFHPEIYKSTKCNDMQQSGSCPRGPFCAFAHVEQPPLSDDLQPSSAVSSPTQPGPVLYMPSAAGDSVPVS
The bound/input enrichment of `GUGUUGCUGGACCUUCAGAGUUAUGAUGGUGAUGCGCAAGGCAAAGAAGAGAUCGACAGUAUUUUGAACAAAGUAGAGGAAAGAAUGAAAGAAUUGAGUCAGGACAGUACUGGGCGGGUG` is reported as 1.69 ratio.
The bound/input enrichment of `AAGUGGCUUCUGGAAUAUACAGAAGAAUAUGAUCAGAUAUUUGCUCCUAAGAAAAAACAAAAGAAGGUACAGGAACAAGUGCAUAAGGUAAGUUCGCGCUGUGAAGACGAAAGCCUUCUU` is reported as 0.173 ratio.
With `GCUAUCUAUGUCCAAGCAUUGAUAUUUCGCCUAGAAGGAAAUAUCCAAGAAUCCCUAGAACUCUUCCAGACAUGUGCAGUUCUUAGUCCUCAGAGUGCUGAUAACCUCAAGCAGGUGGCC` the bound/input enrichment was 0.464 ratio.
For `UGUGUGUGUGUGUGUGUGUGUGUGUGUGUGUGUGUGUGUGUGUGUGUAUGUGUGUGUGUGUGUAUGCAAGUUAUUCCUUCUUGUCAUUUCACACCAAGGAGAAGAUAUUACAUACUUUUU`, the bound/input enrichment was 1.32 ratio.
`GAUAAUGCUAUGUCAAGACUGUUGAAGAAGUAUGAUGUAUUGUUUGCACUCUUCAGCAAAUUGGAAAGGACAUGUGAACUUAUAUAUUUGACACAACCCAGCAGUUCGAUAUCUACUGAA` has a bound/input enrichment of 0.0918 ratio.
`CGGGCAGUGGACGAGCUGCACAAACUGCUCAAAGAAGCAGGAGAAGCCAACAAAACAAUACAAGAUCAUCUUCUACAAGUGGAAGAAUCUAAAGAUCAGAUGGAAAAAGAAAUGCUUGAG` has a bound/input enrichment of 0.175 ratio.
For `GAGAUGACGCUGGCCCAGCUAUUUCUACAGUCUGAAGCUGCUUAUUGCUGUGUCAGUGAAUUAGGAGAGCUUGGGAAGGUCCAAUUUCGGGAUUUAAAUCCAGAUGUGAAUGUUUUCCAG`, the bound/input enrichment was 0.172 ratio.
`AGUGCCCUCUUUUGUUAAUUCCAACUCUUCCUCAGCCUCUUCACACUGGCAUGUCCUGCACAGCAGUGUGUAACUAUCAGUGGUAGAAUGAAAAGAACAACCUACAACAUAGGUAUUUUG` gave a bound/input enrichment of 0.294 ratio.
`CAGCUCUUCUCAGACUACGUGGGCAGCCCCAUCACCUGCACCUGCUUCAGCCGGGAUGGGCAGUGCACCCUGGUGUCCAGCCUGGACUCCACAUUGCGGCUCCUGGACAAAGACACAGGG` gave a bound/input enrichment of 0.0893 ratio.
The bound/input enrichment of `CGCCACAAGGAACUGUUUGCUUUGCAUCCAUCACCAGAUGAGGAAGAACCAAUCGAAAGGCUCAGUGUUCCUGAUGUGCCCAAAGAGCAUUUCGGACAAAGACUUCUUGUGAAAUGUUUA` is reported as 0.108 ratio.
`ACCACCGGAGAAUUCCUGGGGCGCACCGCCAAGAGCUGGGGUUUGAUCUUGCUCUUCUACCUAGUUUUUUAUGGGUUCCUGGCUGCACUCUUCUCAUUCACGAUGUGGGUUAUGCUUCAG` has a bound/input enrichment of 0.478 ratio.

Set 3
Target: CCNE1, cyclin fold, Cln2 fusion (human)
Method: yeast growth competition, sequencing
Matrix: yeast
Setting: weak parent motif
Reference: not given
Direction: higher = stronger binding
Starting sequence: RB1 docking peptide (human); PKPLKKLRFDIEG
Under “normalised enrichment score”, `PKPLKKLRFDCEG [I11C]` is recorded as 0.57.
`PKPLKKLRFWIEG [D10W]`: “normalised enrichment score” 0.595.
For `PKPLKKLRWDIEG [F9W]`, “normalised enrichment score” read 0.15.
For `PKPLKKLRFYIEG [D10Y]`, “normalised enrichment score” read 1.18.
Under “normalised enrichment score”, `PKPRKKLRFDIEG [L4R]` is recorded as 0.215.
`PKPLKKLRFDWEG [I11W]`: “normalised enrichment score” -0.0266.
`PKPLKKLRFDIVG [E12V]` — result for “normalised enrichment score”: -0.0229.
Under “normalised enrichment score”, `WKPLKKLRFDIEG [P1W]` is recorded as 0.86.
`PKPLKKLRFDKEG [I11K]` — result for “normalised enrichment score”: 0.326.
`PKPLKCLRFDIEG [K6C]` — result for “normalised enrichment score”: 0.5.

Other studies, line by line
`PhoQ, residues 284 288 289 292 302 303 SQSLSM` has a fold induction of 2.87 (PhoP, residues 12 14 15 18 19 AWHSL (Escherichia coli, UniProt P23836); Sort-seq, measured: YFP reporter; E. coli; PhoQ-PhoP variant library, added: 10 µM Mg2+; reference: high Mg2+ state, higher = stronger signaling).

Excerpt of the above (set 1):
`ATATATGTAATCATTCACCTGGTGCTA`: “fitted relative affinity” 0.792 z-score.
Under “fitted relative affinity”, `TCATCTTTCATTGCTGCACTGTGCTAG` is recorded as 1.88 z-score.
